Published values of several laboratories.
Each line is one published result; not all experiments were run side by side.

COc1ccc(/N=C(\N)CC(O)c2cc3c(F)cc(F)cc3c3cc(C(F)(F)F)ccc23)cc1.Cl (stereo not shown) — Cmax (mouse, dried blood spot; oral, 10 mg/kg single dose): 29.1 ng/mL
COc1cccc(CN)c1O — Cmax (C57BL/6N mouse, male, plasma; intraperitoneal, 200 mg/kg): 343000 ng/mL
Cc1ccc(Nc2nccc(N(C)c3ccc4c(C)n(C)nc4c3)n2)cc1S(N)(=O)=O — Cmax (mouse non-tumour-bearing, plasma; oral, 150 mg/kg single, together with: topotecan 1.0 mg/kg oral): 122000 ng/mL
CC(=O)N[C@@H](Cc1ccccc1)C(=O)N[C@H]1CCCNC(=O)[C@H](CCCNC(=N)N)NC(=O)[C@H](Cc2c[nH]c3ccccc23)NC(=O)[C@@H](CC2CCCCC2)NC(=O)[C@@H]2CCCN2C1=O — Cmax (C57BL/6J mouse, plasma; oral, 1 mg/kg, single dose): 250 ng/mL
Cc1cc(-c2cc(OC(=O)c3ccccc3)ccc2Cl)cc2nnc(Nc3ccc(OCCN4CCCC4)cc3)nc12 — Cmax (C57BL/6 mouse, plasma; topical, 1%): not detected
COc1cccc2c1C(=O)c1c(O)c3c(c(O)c1C2=O)C[C@@](O)(C(=O)CO)C[C@@H]3O[C@H]1C[C@H](N)[C@H](O)[C@H](C)O1 — Cmax (mouse, E0771 tumour-bearing, heart; intravenous, 92 µmol/kg): 115 µM
CC(=O)Nc1cccc(-n2c(=O)n(C3CC3)c(=O)c3c(Nc4ccc(I)cc4F)n(C)c(=O)c(C)c32)c1 — Cmax (athymic nude mouse, tumour-bearing, plasma; oral, 5 mg/kg, single dose, together with: sapanisertib 2 mg/kg): 34.8 ng/mL
CCOc1ccc(NC(=S)N(CCO)Cc2cc3cc(C)cc(C)c3[nH]c2=O)cc1 — Cmax (C57BL/6J mouse, plasma; oral, 3 mg/kg, together with: ABT 50 mg/kg oral pretreatment 2 h before): 738 ng/mL
Cc1cc(Nc2ccc(C(F)(F)F)nc2)n2nc(C(C)(F)F)nc2n1 — Cmax (mouse, plasma; oral, 4.5 to 41.5 mg/kg): 3110 to 33300 ng/mL
Cc1cnc(Nc2ccc(OCCOc3ccc(/N=N/c4ccc(C(=O)NCCC(=O)O)cc4)cc3C(=O)O)cc2)nc1Nc1cccc(S(=O)(=O)NC(C)(C)C)c1 — Cmax (mouse C57BL/6 female, colon content; oral, 10 mg/kg): > 50000 ng/g

Some of these lines once more:
Cc1cnc(Nc2ccc(OCCOc3ccc(/N=N/c4ccc(C(=O)NCCC(=O)O)cc4)cc3C(=O)O)cc2)nc1Nc1cccc(S(=O)(=O)NC(C)(C)C)c1 — Cmax (mouse C57BL/6 female, colon content; oral, 10 mg/kg): > 50000 ng/g
COc1ccc(/N=C(\N)CC(O)c2cc3c(F)cc(F)cc3c3cc(C(F)(F)F)ccc23)cc1.Cl (stereo not shown) — Cmax (mouse, dried blood spot; oral, 10 mg/kg single dose): 29.1 ng/mL
